Published values gathered from unrelated publications.
Each line is one published result; not all experiments were run side by side. ± marks the error that the study gave.
Cell line: MCF7

SMILES | read-out | action | technique | measured | time | notes | IC50
COc1ccc(CNC[C@](O)(COCc2ccc(OC)cc2)[C@@H]2CC[C@@H](C)C[C@H]2OCc2ccc(OC)cc2)cc1 | cell growth | inhibitor | MTT |  | 72 h |  | 1.42 µM
COc1cccc2c1C(=O)c1c(O)c3c(c(O)c1C2=O)C[C@@](O)(C(=O)CO)C[C@@H]3O[C@H]1C[C@H](N)[C@H](O)[C@H](C)O1 | cell viability |  | MTT |  | 48 h |  | 0.21 ± 0.01 mg/L
CC(=O)Nc1ccc(Oc2nnc(-c3ccc(Cl)cc3)c3ccccc23)cc1 | cell growth |  | MTT |  |  |  | 0.15 µM
C[C@@H]1CC[C@@H]([C@@](C)(O)Cn2cnc3ccccc32)[C@H](OCc2ccccc2)C1 | cell growth | inhibitor | MTT |  | 72 h |  | 9.41 µM
O=C(Nc1ccc(CN2CCOCC2)c(C(F)(F)F)c1)c1ccc(C#Cc2cccc3cnccc23)cn1 | cell viability |  | MTT |  | 72 h |  | > 180 µM
O=C1NC(=NCc2cccs2)S/C1=C\c1ccc2ncccc2c1 |  |  | MTS |  |  | NCI60 panel | 10 µM
C=CC(=O)N1CCC(COCC(=O)N2CCN(c3nc(-c4cnc(N)nc4C(F)F)nc(N4CCOC[C@@H]4C)n3)CC2)CC1 |  |  | western blot | phospho-S6 Ser235/Ser236 | 2 h |  | 0.0503 µM
Cc1nc(NC(=O)N2CCC[C@H]2C(N)=O)sc1-c1ccnc(C(C)(C)C(F)(F)F)c1 | growth rate inhibition |  | CellTiter-Glo |  | 120 h |  | 1.47 µM
C[C@@H]1CC[C@@H]([C@](C)(O)CNCc2ccccc2F)[C@H](OCc2ccccc2)C1 | cell growth | inhibitor | MTT |  | 72 h |  | 8.57 µM
Cc1nc(NC(=O)N2CCC[C@H]2C(N)=O)sc1-c1ccnc(C(C)(C)C(F)(F)F)c1 |  |  | western blot | phospho-PKB/Akt Ser473 | 2 h |  | 0.0546 µM
CC(C)(C)c1ccc(CN2CCN(C(c3ccccc3)c3ccc(Cl)cc3)CC2)cc1 (stereo not drawn) | cell growth |  |  |  | 72 h |  | 31.3 ± 7.8 µM
O=C1NCCc2[nH]c(-c3ccncc3)cc21 |  |  | MTS |  |  | NCI60 panel | 3.77 µM
C[C@H](Nc1ccc2c(c1)OCCn1cc(N3C(=O)OC[C@H]3C(F)F)nc1-2)C(N)=O | growth rate inhibition |  | CellTiter-Glo |  | 120 h |  | 0.528 µM
C[C@H](Nc1ccc2c(c1)OCCn1cc(N3C(=O)OC[C@H]3C(F)F)nc1-2)C(N)=O |  |  | western blot | phospho-S6 Ser235/Ser236 | 2 h |  | 0.0683 µM
C[C@@H]1CC[C@@H]([C@](O)(CNCc2cccc3ccccc23)COCc2ccccc2)[C@H](OCc2ccccc2)C1 | cell growth | inhibitor | MTT |  | 72 h |  | 5.93 µM
